# Measured values collected from several papers.
# Protocols differ between the studies behind these lines. Several values in a cell are separate wells, animals, samples, runs or records. ± gives the spread as reported.
SMILES,target or system,test,test system,setting,scale,endpoint,result
O=C(/C=C/c1ccc(CN(CCO)CCc2c[nH]c3ccccc23)cc1)NO,HBL-1,,,"0.5 µM, 120 h",,viability,0.446%
O=C(C[C@@H](C(F)F)n1ccc(F)n1)N1CCC(O)(Cn2cnc3c(cnn3-c3ccc(F)cc3)c2=O)CC1,CHP-212 resistant cells (pooled),annexin V-PI flow cytometry,,"0.3 µM, 48 h",,viable cells (annexin V-/PI-),87.2% and 83.2% and 84.8%
O=P(O)(O)C(O)(Cn1ccnc1)P(=O)(O)O,MDA-MB-231,AlamarBlue,,"15 µM, 24 h",baseline: control,viability,95 ± 5%
CC(C)n1nc(-c2cc3cc(O)ccc3[nH]2)c2c(N)ncnc21,hiPSC cardiomyocytes,CellTiter-Glo,,"concentration not given, 24 h",baseline: vehicle,ATP level,87.8%
Cn1cc(Nc2nccc(-c3ccc4c(c3)CN(C3COC3)CC[C@H]4NC(=O)c3cn(C(C)(C)C)nn3)n2)cn1,mouse splenic B cells,refers to: FGF signalling,,"30 mg/kg, IgD-activated in vivo","baseline: vehicle, direction not given",pathway activation z-score,3.46
Clc1ccc(-c2csc(NN=C3CCCC3)n2)cc1,HBL-1,,,"1 µM, 120 h",,viability,94%
COc1cc(Oc2ccnc3cc(OC)c(OC)cc23)ccc1NC(=O)NC(C)c1nccs1 (stereo not drawn),hiPSC cardiomyocytes,CellTiter-Glo,,"concentration not given, 24 h",baseline: vehicle,ATP level,97.7%
COc1ccc(NC(=S)N/N=C/c2cccc3cc4ccccc4nc23)cc1,HeLa,PI flow cytometry,,"IC12.5, 48 h, added: N-acetylcysteine",,G2/M phase cells,13.5 ± 3.1%
CCn1cc(-c2cc(Cn3ccnc3)cc3c2CCN([C@H](c2cc(OC)ccn2)C2CC2)C3=O)c(C(F)(F)F)n1,Huh-7,"cell growth, inhibitor",,120 h,,EC50,4410 nM
Cc1ccc(NC2=CC(=O)c3sc(C)nc3C2=O)cc1,HeLa expressing Ub(G76V)-GFP,"Ub(G76V)-GFP degradation, cycloheximide chase",,12 µM,,inhibition,77%
O=C(O)CCNc1cc(N2CCc3ccccc3CC2)nc(-c2ccccn2)n1,HBL-1,,,"0.5 µM, 120 h",,viability,113%
Cc1c(C)c2c(c(C)c1O)CCC(C)(COc1ccc(CC3SC(=O)NC3=O)cc1)O2 (stereo not drawn),HepG2,mitochondrial ROS,,1 h,,representative mode point of departure,0.0741 µM
COc1ccc(NC(=O)Nc2cccc(-c3cn(Cc4ccccc4C)nn3)c2)cc1,Huh-7,annexin V/PI flow cytometry,,"5 µM, 72 h",,apoptotic cells,no effect
O=C(/C=C/C=C/C=C/C1CCCCC1)NC1=C[C@@](O)(/C=C/C=C/C=C/C(=O)NC2=C(O)CCC2=O)[C@@H]2O[C@@H]2C1=O,HSC-3,"cell growth, CellTiter-Glo",,78 h,,GI50,12600 nM
COc1cc(/C=C/C(=O)N2CCC=CC2=O)cc(OC)c1OC,MDA-MB-468,"quantitative RT-PCR, refers to: MT2A",,"30 µM, 8 h",baseline: untreated cells,mRNA level,67 ± 1.2%
Nc1nc(Nc2ccc(S(N)(=O)=O)cc2)nn1C(=S)Nc1c(F)cccc1F,HeLa expressing Ub(G76V)-GFP,"Ub(G76V)-GFP degradation, cycloheximide chase",,12 µM,,inhibition,-21%
COc1cnc2cccc(N3CCc4c(cc(Cn5ccnc5C)cc4-c4cn(C)nc4C(F)(F)F)C3=O)c2c1,KYSE-70,"cell growth, inhibitor",,120 h,,EC50,30900 nM
Nc1ccccc1NC(=O)c1ccc(CNC(=O)OCc2cccnc2)cc1,HBL-1,,,"0.5 µM, 120 h",,viability,36.3%
CC[n+]1c(/C=C/N(C)c2ccccc2)n(-c2ccccc2)c2ccc(-c3nc4ccccc4s3)cc21.[I-],HeLa expressing Ub(G76V)-GFP,"Ub(G76V)-GFP degradation, inhibitor, cycloheximide chase",,12 µM,,inhibition,61%
Cn1cc(-c2ccc(-c3cncc(Cl)c3N3CCC4(CCNC4=O)CC3)cc2)cn1,COLO 205,"gene expression, microarray, refers to: S100P mRNA",,"concentration not given, 6 h",baseline: untreated cells,log2 fold change,3.96
CC(C)NCC(O)c1ccc(O)c(O)c1 (stereo not drawn),mouse ventricular cardiomyocytes,,,"dose not given, 0.395 s",,sarcomere length,1.8 µm
Nc1n[nH]c2nc(-c3cccc(O)c3)cc(-c3cc4cc(Cl)ccc4nc3N3CCOCC3)c12,NFS-60,MTT,,,baseline: WI-38 EC50 over NFS-60 IC50,selectivity ratio,0.831
Cc1cc(Nc2ncc(Cl)c(Nc3ccccc3S(=O)(=O)C(C)C)n2)c(OC(C)C)cc1C1CCNCC1,CLB-GE,"phosphoproteomics LC-MS/MS, refers to: ATXN1L phosphorylation",,"200 nM, 60 min",baseline: untreated,log2 fold change,-1.85
Cc1[nH]c(C)c(-c2ccc(OCCCc3ccccn3)cc2)c(=O)c1Br,Plasmodium yoelii,,17XL,384-well,,IC50,321 ± 108 nM
COc1cc2ncnc(Nc3ccc(OCc4ccccc4)cc3)c2cc1OC,HeLa expressing Ub(G76V)-GFP,"Ub(G76V)-GFP degradation, inhibitor, cycloheximide chase",,12 µM,,inhibition,19%
CCC(=O)N1CCC(COCC(=O)N2CCN(c3nc(-c4cnc(N)nc4C(F)F)nc(N4CCOC[C@@H]4C)n3)CC2)CC1,A2058,resazurin growth rate inhibition,,72 h,,GR50,> 5 µM
C=CCn1c(=O)c2cnc(Nc3ccc(N4CCN(C)CC4)cc3)nc2n1-c1ccc2c(n1)[C@@](O)(CC)CC2,OVCAR-3,"flow cytometry, refers to: pHH3-γH2Ax-",,concentration not given,,G2/M cells in subpopulation,64%
Cn1c(Nc2nc3ccc(C(F)(F)F)cc3s2)nc2cc(C(=O)NCCOCCO)ccc21,SH-SY5Y,"RNA-seq, refers to: XYLT1 mRNA",,"5 µM, 5 h",baseline: untreated cells,fold change,1.62
CC(C)C[C@H](NC(=O)[C@H](Cc1ccccc1)NC(=O)c1cnccn1)B(O)O,BT-12,"cell viability, MTT",,"10 µM, 72 h",,inhibition,96.3%
CCc1cnc(N2CCC(c3nc(COc4ccc(-n5cnnn5)cc4)cs3)CC2)nc1,HEK-293T,"RNA-seq GSEA, refers to: Hallmark apical junction",,concentration not given,direction not given,normalized enrichment score,-1.3
Nc1ncnc2n[nH]c(Nc3ccc(F)cc3)c12,HeLa expressing Ub(G76V)-GFP,"Ub(G76V)-GFP degradation, cycloheximide chase",,12 µM,,inhibition,71%
CCCc1cc(C)[nH]c(=O)c1CNC(=O)c1cc(-c2ccnc(N3CCN(C)CC3)c2)cc2c1cnn2C(C)C,HBL-1,,,"0.1 µM, 120 h",,viability,111%
CN(C)c1ccc(C(=C2C=CC(=[N+](C)C)C=C2)c2ccc(N(C)C)cc2)cc1,BT-12,"cell viability, MTT",,"10 µM, 72 h",,inhibition,87.9%
CC/C(=N\NC(=O)NCc1cccc(O)c1)c1ccc(O)c(C)c1O,SK-OV-3,"gene expression, microarray, refers to: ENPP2",,"10 µM, 24 h",baseline: DMSO,log ratio,-3.72
Cc1cncc2cccc(S(=O)(=O)N3CCCN(C(=O)CN)C[C@@H]3C)c12,HeLa expressing Ub(G76V)-GFP,"Ub(G76V)-GFP degradation, cycloheximide chase",,12 µM,,inhibition,20%
CCCN1CCN(c2cccc(-c3cnccc3N3CCCC4(CCNC4=O)C3)c2)CC1 (stereo not drawn),COLO 205,"TCF/LEF reporter gene, inhibitor",,concentration not given,,activity,inactive
CCN(CC)Cc1ccc2cc(COC(=O)Nc3ccc(C(=O)NO)cc3)ccc2c1,BT-12,"cell viability, MTT",,"10 µM, 72 h",,inhibition,92.3%
CCCCc1c(-c2ccc(OC)cc2)[nH]c2nccnc12,HeLa expressing Ub(G76V)-GFP,"Ub(G76V)-GFP degradation, cycloheximide chase",,12 µM,,inhibition,26%
CC(=O)Nc1cccc(-n2c(=O)n(C3CC3)c(=O)c3c(Nc4ccc(I)cc4F)n(C)c(=O)c(C)c32)c1,COLO 205,"cell viability, resazurin",,"6.25 nM, 72 h",baseline: DMSO,fractional effect,0.891 and 0.897
COc1ccc(/C=C\c2cc(OC)c(OC)c(OC)c2)cc1OP(=O)(O)O,BT-12,"cell viability, MTT",,"10 µM, 72 h",,inhibition,87.6%
CC#CC(=O)Nc1cc2c(Nc3ccc(F)c(Cl)c3)ncnc2cn1,HeLa expressing Ub(G76V)-GFP,"Ub(G76V)-GFP degradation, inhibitor, cycloheximide chase",,12 µM,,inhibition,17%
O=C([O-])CN(CCN(CC(=O)[O-])Cc1cc(CCC(=O)NCCCCCC(=O)NCCCC[C@H](NC(=O)N[C@@H](CCC(=O)O)C(=O)O)C(=O)O)ccc1[O-])Cc1cc(CCC(=O)O)ccc1[O-].[68Ga+3].[OH3+],LNCaP,,,"25 nM, 1 h, 4 °C",,internalized activity,0.03 ± 0.02 %AD/mg protein
NC(=O)NOCCCCCCCCCCCCCCCCCCCC[P+](c1ccccc1)(c1ccccc1)c1ccccc1.O=C([O-])C(F)(F)F,"mouse CD4 T cells, reporter","IFNγ-YFP expression, flow cytometry",,144 h,,concentration at maximal effect,0.3 µM
CCCCCCCCc1ccc(CCC(N)(CO)CO)cc1,BT-12,"cell viability, MTT",,"10 µM, 72 h",,inhibition,94.4%
CCCN1CCN(c2ccc3[nH]c(-c4ccc5[nH]c(-c6ccc(C(F)(F)F)cc6)nc5c4)nc3c2)CC1,Hs-578T,SRB,,"10 µM, 48 h",,growth percent,4.6%
N#CSc1cc(SC#N)c(N)nc1N,BT-12,"cell viability, MTT",,"10 µM, 72 h",,inhibition,94.2%
COc1cccc2c1C(=O)c1c(O)c3c(c(O)c1C2=O)C[C@@](O)(C(=O)CO)C[C@@H]3O[C@H]1C[C@H](N)[C@H](O)[C@H](C)O1,PANC-1,WST-1,,"concentration not given, 72 h, highest tested concentration",,maximal cytotoxicity,88.5%
CCS(=O)(=O)c1nc(C2CC2)cc(C(F)(F)F)n1,HeLa Kyoto,"RelA nuclear import, high content imaging",,"0.5 µM, 3 h, added: 1 µM PMA, 60 min",,cells with nuclear RelA,73.8% and 90.6%
COc1ccc(Oc2ccc(-c3c(C)[nH]c(C)c(Cl)c3=O)cc2)cc1,Plasmodium yoelii,,17XL,384-well,,IC50,154 ± 56 nM
Cc1cn([C@@H]2O[C@H](CO)[C@@H](O)[C@H]2O)c(=O)nc1N,HBL-1,,,"1 µM, 120 h",,viability,97.5%
CC[S+]([O-])c1nc(-c2cccc(OCc3ccccc3)c2)cc(C(F)(F)F)n1 (stereo not drawn),HeLa Kyoto,"RelA nuclear import, high content imaging",,"0.5 µM, 3 h, added: 1 µM PMA, 60 min",,cells with nuclear RelA,84.4% and 88.3%
CC1(C)CCC(CN2CCN(c3ccc(C(=O)NS(=O)(=O)c4ccc(NCC5CCOCC5)c([N+](=O)[O-])c4)c(Oc4cnc5[nH]ccc5c4)c3)CC2)=C(c2ccc(Cl)cc2)C1,THP-1,"annexin V/PI flow cytometry, refers to: annexin V+/PI+",,"0.8 µM, 24 h",,late apoptotic cells,2.3%
Cc1ccc(C(=O)N(CCCN)[C@@H](c2nc3cc(Cl)ccc3c(=O)n2Cc2ccccc2)C(C)C)cc1,BT-12,"cell viability, MTT",,"10 µM, 72 h",,inhibition,95.7%
NC(=O)c1cccc(NC(=O)/C=C/c2c[nH]c3ccccc23)c1,HBL-1,,,"0.1 µM, 120 h",,viability,95.3%
CCn1cc(-c2cc(Cn3ccoc3=N)cc3c2CCN([C@@H](C)c2cc(OC)ccn2)C3=O)c(C(F)(F)F)n1,SU-DHL-5,"cell growth, inhibitor",,120 h,,EC50,17.1 nM
CC(C)N(CCCNC(=O)Nc1ccc(C(C)(C)C)cc1)C[C@H]1O[C@@H](n2cc(Br)c3c(N)ncnc32)[C@H](O)[C@@H]1O,HBL-1,,,"0.1 µM, 120 h",,viability,138%
CCCCCCOC(=O)[C@]1(O)C[C@@H]2O[C@@]1(C)n1c3ccccc3c3c4c(c5c6ccccc6n2c5c31)C(=O)NC4,SK-OV-3,ATP,3D gellan gum culture,"10 µM, 4 days",baseline: untreated,relative cell number,44.3%
